{"data": "Results collected from several papers", "OPRK1": "Kappa-type opioid receptor (OPRK1, Homo sapiens, UniProt P41145)", "note": "Values joined by “and” are separate records of one study, mostly repeats; a detail may differ. ± gives the spread as reported.", "sequence of UniProt P42336 (whole entry, unmodified, looked up)": "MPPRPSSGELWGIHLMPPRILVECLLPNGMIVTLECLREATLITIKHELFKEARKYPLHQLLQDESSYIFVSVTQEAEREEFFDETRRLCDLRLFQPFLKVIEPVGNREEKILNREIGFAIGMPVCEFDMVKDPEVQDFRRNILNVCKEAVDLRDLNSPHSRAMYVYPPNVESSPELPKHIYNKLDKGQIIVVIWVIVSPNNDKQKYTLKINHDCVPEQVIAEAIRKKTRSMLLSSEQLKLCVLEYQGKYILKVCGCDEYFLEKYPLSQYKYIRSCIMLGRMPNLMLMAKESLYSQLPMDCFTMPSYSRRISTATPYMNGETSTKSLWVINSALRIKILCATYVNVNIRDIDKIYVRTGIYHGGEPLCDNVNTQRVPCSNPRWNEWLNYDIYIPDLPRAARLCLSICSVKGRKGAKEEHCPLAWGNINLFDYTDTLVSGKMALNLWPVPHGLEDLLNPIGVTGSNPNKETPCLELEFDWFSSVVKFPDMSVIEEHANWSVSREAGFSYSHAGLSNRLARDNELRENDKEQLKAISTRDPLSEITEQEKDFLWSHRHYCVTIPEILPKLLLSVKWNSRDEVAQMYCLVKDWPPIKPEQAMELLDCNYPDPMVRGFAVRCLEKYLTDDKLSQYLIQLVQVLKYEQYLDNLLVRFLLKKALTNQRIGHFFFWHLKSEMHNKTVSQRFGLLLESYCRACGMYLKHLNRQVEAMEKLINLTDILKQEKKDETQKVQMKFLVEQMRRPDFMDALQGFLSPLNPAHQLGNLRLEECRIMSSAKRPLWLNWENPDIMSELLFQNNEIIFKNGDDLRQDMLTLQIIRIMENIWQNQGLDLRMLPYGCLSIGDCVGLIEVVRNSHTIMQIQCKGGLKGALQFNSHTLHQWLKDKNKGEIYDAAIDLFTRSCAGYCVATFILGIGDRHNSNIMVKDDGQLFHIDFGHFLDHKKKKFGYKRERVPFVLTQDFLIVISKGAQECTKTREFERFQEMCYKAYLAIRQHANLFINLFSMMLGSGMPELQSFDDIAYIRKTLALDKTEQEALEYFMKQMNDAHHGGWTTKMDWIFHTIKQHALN", "sequence of UniProt Q9UH17 (whole entry, looked up)": "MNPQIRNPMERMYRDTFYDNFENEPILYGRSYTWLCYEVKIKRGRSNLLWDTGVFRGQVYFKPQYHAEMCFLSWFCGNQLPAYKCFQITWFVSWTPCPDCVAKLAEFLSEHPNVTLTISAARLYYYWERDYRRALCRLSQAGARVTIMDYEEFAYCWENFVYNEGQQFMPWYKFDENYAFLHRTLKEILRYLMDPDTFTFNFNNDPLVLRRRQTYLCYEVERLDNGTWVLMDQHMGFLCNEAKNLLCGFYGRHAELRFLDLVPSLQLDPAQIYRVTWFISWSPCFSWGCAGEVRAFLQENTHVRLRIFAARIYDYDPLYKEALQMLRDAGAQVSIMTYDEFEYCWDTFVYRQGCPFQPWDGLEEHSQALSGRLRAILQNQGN", "sequence of UniProt Q9UM07 (whole entry, looked up)": "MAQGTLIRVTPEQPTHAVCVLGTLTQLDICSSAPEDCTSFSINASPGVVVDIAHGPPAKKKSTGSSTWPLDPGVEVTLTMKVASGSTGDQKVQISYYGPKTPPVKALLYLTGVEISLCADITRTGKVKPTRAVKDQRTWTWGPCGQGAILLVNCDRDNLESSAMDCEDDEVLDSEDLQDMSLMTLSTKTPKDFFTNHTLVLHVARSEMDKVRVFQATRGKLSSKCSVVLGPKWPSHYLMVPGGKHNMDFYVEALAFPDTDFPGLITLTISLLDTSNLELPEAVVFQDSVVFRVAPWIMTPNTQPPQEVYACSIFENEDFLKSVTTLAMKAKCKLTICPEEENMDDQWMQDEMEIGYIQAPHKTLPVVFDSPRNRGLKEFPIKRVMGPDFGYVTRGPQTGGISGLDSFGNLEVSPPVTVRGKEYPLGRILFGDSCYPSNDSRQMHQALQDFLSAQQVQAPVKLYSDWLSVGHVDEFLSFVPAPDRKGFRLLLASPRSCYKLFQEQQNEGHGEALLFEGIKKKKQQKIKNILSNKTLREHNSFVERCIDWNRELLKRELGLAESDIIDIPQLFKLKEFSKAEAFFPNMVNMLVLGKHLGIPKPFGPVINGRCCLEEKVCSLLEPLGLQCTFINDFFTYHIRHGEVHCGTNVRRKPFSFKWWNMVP", "sequence of UniProt P41145 (whole entry, looked up)": "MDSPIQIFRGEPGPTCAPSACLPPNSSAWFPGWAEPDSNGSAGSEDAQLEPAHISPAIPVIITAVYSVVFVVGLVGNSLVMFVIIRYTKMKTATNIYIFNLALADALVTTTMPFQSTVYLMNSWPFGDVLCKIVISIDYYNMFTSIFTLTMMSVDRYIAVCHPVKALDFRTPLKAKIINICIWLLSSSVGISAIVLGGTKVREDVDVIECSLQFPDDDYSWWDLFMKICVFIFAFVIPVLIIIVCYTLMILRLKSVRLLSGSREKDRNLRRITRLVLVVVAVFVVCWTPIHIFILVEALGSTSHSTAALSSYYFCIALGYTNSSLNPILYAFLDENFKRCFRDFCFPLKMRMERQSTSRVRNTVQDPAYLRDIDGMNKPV", "sequence of UniProt Q05655 (whole entry, looked up)": "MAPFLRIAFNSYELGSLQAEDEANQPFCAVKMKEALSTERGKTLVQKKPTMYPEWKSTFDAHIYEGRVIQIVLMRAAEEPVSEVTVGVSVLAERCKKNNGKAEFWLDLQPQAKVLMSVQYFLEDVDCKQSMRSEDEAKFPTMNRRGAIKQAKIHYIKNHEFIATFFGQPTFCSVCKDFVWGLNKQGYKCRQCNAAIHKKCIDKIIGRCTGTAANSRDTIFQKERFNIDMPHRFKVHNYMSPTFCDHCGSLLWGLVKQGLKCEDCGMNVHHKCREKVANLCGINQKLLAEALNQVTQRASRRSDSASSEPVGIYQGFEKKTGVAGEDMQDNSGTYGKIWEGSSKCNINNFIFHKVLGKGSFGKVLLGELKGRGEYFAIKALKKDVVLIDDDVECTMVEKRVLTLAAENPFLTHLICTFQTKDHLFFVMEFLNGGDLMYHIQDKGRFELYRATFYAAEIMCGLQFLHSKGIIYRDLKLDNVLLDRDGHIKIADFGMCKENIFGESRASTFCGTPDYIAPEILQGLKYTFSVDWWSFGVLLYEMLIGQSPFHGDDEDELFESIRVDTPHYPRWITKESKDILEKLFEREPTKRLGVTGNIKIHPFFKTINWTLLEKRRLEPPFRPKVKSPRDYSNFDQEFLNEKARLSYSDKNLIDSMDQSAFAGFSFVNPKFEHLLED", "sequence of UniProt Q96GW9 (whole entry, looked up)": "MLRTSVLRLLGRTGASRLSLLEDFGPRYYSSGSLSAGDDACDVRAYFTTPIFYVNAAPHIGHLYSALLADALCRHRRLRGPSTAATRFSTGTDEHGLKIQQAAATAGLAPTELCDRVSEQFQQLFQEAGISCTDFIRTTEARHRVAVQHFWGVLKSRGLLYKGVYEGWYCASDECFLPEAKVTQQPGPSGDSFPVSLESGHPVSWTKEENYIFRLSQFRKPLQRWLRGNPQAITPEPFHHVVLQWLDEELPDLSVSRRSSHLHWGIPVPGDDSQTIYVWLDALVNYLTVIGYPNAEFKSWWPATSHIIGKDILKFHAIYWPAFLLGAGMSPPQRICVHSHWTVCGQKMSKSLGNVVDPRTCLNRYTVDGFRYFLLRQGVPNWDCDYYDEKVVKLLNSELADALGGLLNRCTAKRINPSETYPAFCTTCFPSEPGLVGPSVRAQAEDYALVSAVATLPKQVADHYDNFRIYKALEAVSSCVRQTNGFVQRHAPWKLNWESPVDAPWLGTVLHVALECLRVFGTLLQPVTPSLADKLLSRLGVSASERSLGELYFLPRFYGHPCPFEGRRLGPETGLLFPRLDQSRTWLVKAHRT", "sequence of UniProt P15066 (whole entry, unmodified, looked up)": "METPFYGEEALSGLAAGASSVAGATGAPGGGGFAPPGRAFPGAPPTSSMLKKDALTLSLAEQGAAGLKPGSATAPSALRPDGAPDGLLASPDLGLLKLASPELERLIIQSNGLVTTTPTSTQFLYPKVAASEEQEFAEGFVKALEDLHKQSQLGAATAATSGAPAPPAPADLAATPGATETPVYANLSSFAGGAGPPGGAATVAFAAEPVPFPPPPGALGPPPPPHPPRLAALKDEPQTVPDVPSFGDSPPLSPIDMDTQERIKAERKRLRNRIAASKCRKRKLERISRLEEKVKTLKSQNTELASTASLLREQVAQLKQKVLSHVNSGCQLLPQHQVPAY", "sequence of UniProt Q9P286 (whole entry, looked up)": "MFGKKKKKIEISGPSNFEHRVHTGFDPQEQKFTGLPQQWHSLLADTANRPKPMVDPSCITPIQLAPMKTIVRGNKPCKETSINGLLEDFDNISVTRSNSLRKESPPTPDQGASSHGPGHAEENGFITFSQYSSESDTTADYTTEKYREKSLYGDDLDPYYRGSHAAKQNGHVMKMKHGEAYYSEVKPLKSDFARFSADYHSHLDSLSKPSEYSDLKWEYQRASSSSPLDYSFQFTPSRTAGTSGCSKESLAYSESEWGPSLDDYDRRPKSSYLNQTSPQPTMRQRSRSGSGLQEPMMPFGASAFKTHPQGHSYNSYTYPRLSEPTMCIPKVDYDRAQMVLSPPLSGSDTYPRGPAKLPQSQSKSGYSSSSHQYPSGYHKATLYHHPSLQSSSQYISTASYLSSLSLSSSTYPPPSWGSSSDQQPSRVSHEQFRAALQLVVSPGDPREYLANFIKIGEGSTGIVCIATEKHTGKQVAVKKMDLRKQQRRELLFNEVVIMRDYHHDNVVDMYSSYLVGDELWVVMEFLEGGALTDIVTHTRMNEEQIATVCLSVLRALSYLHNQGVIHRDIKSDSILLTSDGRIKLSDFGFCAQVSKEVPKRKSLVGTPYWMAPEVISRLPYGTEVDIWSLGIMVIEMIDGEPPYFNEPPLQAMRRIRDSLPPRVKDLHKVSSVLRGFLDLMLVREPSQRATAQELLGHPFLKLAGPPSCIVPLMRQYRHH"}
{"SMILES": "C/C(=N\\OCCCN1CCCCC1)c1ccc(C(F)(F)F)cc1", "target": "Glutamate NMDA receptor; GRIN1/GRIN2B (GRIN1/GRIN2B, Homo sapiens, UniProt Q05586+Q13224)", "test": "agonist, manual patch clamp", "setting": "10 µM", "measurement": "activation", "result": "1.87%"}
{"SMILES": "N[C@H](C(=O)N1CCCC1)C1CCN(c2nccc3c(-c4ncc(Cl)cc4Cl)cccc23)CC1", "target": "Protein-arginine deiminase type-4 (PADI4, Homo sapiens, UniProt Q9UM07)", "test": "enzyme activity", "setting": "9.6 µM, high-affinity site, together with: Ca2+ 1.5 mM", "measurement": "kcat", "result": "0.128 s⁻¹ and 0.182 s⁻¹"}
{"SMILES": "CCn1nc(Cl)c2c1-c1cnc(N)c(c1)O[C@H](C)c1cc(F)ccc1-c1nn(C)cc1C2", "target": "Ephrin type-A receptor 5 (EPHA5, Homo sapiens, UniProt P54756)", "test": "kinase activity, inhibitor", "how to read": "relative to: IC50 EPHA5 over IC50 ALK", "measurement": "selectivity ratio", "result": "224 fold"}
{"SMILES": "C[C@@H](CNCc1cc(Cl)cc(Cl)c1)CNc1nc2ncccc2[nH]1", "target": "Methionine--tRNA ligase, mitochondrial (MARS2, Homo sapiens, UniProt Q96GW9)", "test": "enzyme activity", "how to read": "relative to: human IC50 over T. brucei IC50", "measurement": "selectivity ratio", "result": "> 2"}
{"SMILES": "COc1ccc(-c2csc(NN=C(C=Cc3ccc(Cl)cc3)C(=O)O)n2)cc1", "target": "Acetylcholinesterase (ache, Electrophorus electricus, UniProt O42275)", "test": "Ellman", "how to read": "relative to: IC50 BChE over IC50 AChE", "measurement": "selectivity index", "result": 11.7}
{"SMILES": "CC(C)CC(O)(CC(C)C)c1cn(C(=O)N2CCCC2)nn1", "target": "Serine beta-lactamase-like protein LACTB, mitochondrial (Lactb, Mus musculus, UniProt Q9EP89)", "system": "mouse, brain", "setting": "concentration not given", "how to read": "relative to: vehicle over compound", "measurement": "activity-based probe labelling ratio", "result": 2.62}
{"SMILES": "C#CCCCCOc1ccc2c(c1)CCCN2C(=O)CCl", "target": "Small ribosomal subunit protein uS17 (Homo sapiens, UniProt P62280)", "test": "mass spectrometry profiling, item: RPS11", "system": "H460 cell lysate", "setting": "100 µM over 10 µM, UniProt P62280", "how to read": "relative to: high over low concentration", "measurement": "reactivity ratio", "result": 1.6}
{"SMILES": "CCCCCC(O)/C=C/C=O (stereo not drawn)", "target": "60 kDa heat shock protein, mitochondrial (Homo sapiens, UniProt P10809)", "test": "competitive isoTOP-ABPP, item: HSPD1 cysteine peptide", "system": "proteome, soluble, MDA-MB-231", "setting": "100 µM, together with: iodoacetamide probe", "how to read": "relative to: DMSO over compound-treated, higher = stronger cysteine blockade", "measurement": "isoTOP-ABPP competition ratio", "result": 2}
{"SMILES": "O=C(Cc1ccc(Cl)c(Cl)c1)N1CCN(S(=O)(=O)C2CC2)[C@@H]2COC[C@H](N3CCCC3)[C@H]21 (single isomer, unassigned)", "target": "OPRK1", "test": "β-arrestin-2 recruitment, agonist", "system": "U2OS", "setting": "1.5 h", "how to read": "relative to: U-69593 maximal response", "measurement": "Emax", "result": "48%"}
{"SMILES": "O=C(CCl)c1ccc(F)cc1", "target": "Fosb/Jund, ΔFosB bZIP domain (Mus musculus, UniProt P13346+P15066)", "test": "intact mass LC-MS, item: JUND adduct, HCl lost", "setting": "concentration not given", "how to read": "relative to: total JUND species", "measurement": "relative abundance", "result": "32.6%"}
{"SMILES": "O=C(CN1CN(c2ccccc2)C2(CCN(C(=O)c3cnc4[nH]ncc4c3)CC2)C1=O)NCC(F)(F)F", "target": "Tyrosine-protein kinase JAK1, JH2 pseudokinase domain (JAK1, Homo sapiens, UniProt P23458)", "test": "inhibitor", "setting": "concentration not given", "measurement": "inhibition", "result": "< 50%"}
{"SMILES": "O=C(NC1CCN(c2ncnc3[nH]cnc23)CC1)c1cccc(NS(=O)(=O)c2ccc(C(F)(F)F)cc2)c1", "target": "mRNA cap guanine-N(7) methyltransferase (RNMT, Homo sapiens, UniProt O43148)", "test": "enzyme activity, inhibitor", "setting": "12.21 nM", "measurement": "inhibition", "result": "10.4%"}
{"SMILES": "C=CC(=O)Nc1cc(-c2ccc(C(=O)N3CCCC(O)(CC)C3)cc2)ccc1F (stereo not drawn)", "target": "DNA dC->dU-editing enzyme APOBEC-3B, C-terminal domain (Homo sapiens, UniProt Q9UH17)", "test": "covalent adduct, intact protein MS", "setting": "125 µM, 1 h, 5-fold molar excess", "measurement": "unmodified protein", "result": "89% and 86%"}
{"SMILES": "C=CC(=O)NC[C@H](NC(=O)[C@H](CC1CCCCC1)NC(=O)[C@H](CCC(N)=O)NC(C)=O)C(=O)N[C@@H](CC(C)C)C(=O)N[C@@H](Cc1ccccc1)C(=O)O", "target": "Beta sliding clamp (Escherichia coli, UniProt P0A988)", "test": "binding, isothermal titration calorimetry", "setting": "pH 7.4, 37 °C", "measurement": "ΔH", "result": "-15.9 kcal/mol"}
{"SMILES": "COc1ccccc1-c1n[nH]c2nc(N[C@H]3CC[C@H](NS(=O)(=O)CC(C)C)CC3)ncc12", "target": "cdc2-related kinase 12 (Leishmania donovani, UniProt A0A3S7WQK2)", "test": "competitor, bead pull-down competition", "system": "Leishmania donovani extract", "setting": "0.08 µM", "how to read": "relative to: vehicle", "measurement": "remaining binding", "result": "13%"}
{"SMILES": "CC[C@H](C)[C@H](NC(=O)[C@H](CC(C)C)NC(=O)[C@H](CC(C)C)NC(=O)[C@H](CC(=O)O)NC(=O)[C@@H](NC(=O)[C@H](CCC(=O)O)NC(=O)[C@H](CCCCN)NC(=O)[C@H](Cc1ccc(O)cc1)NC(=O)[C@H](CCCCN)NC(=O)[C@H](Cc1c[nH]cn1)NC(=O)CNC(=O)CN)[C@@H](C)O)C(=O)N[C@@H](CC(C)C)C(=O)N[C@@H](Cc1ccccc1)C(=O)N[C@@H](CCCCN)C(=O)N[C@@H](CC(=O)O)C(=O)N[C@@H](CC(=O)O)C(=O)N[C@@H](Cc1ccc(O)cc1)C(=O)N[C@@H](Cc1ccccc1)C(=O)N[C@@H](C)C(=O)N[C@@H](CCCCN)C(=O)N[C@@H](CCCCN)C(=O)N[C@@H](CC(N)=O)C(=O)N[C@@H](CCC(=O)O)C(=O)N[C@@H](CCC(=O)O)C(=O)N[C@@H](CCCNC(=N)N)C(=O)N[C@@H](CCCCN)C(N)=O", "target": "HCV IRES RNA", "test": "RNA cleavage", "system": "hepatitis C virus", "measurement": "kcat/Km", "result": "3500 M⁻¹ s⁻¹"}
{"SMILES": "CCN(N=Cc1cnc2ccc(Br)cn12)S(=O)(=O)c1cc([N+](=O)[O-])ccc1C", "target": "Phosphatidylinositol 4,5-bisphosphate 3-kinase catalytic subunit alpha isoform (PIK3CA, Homo sapiens, UniProt P42336, I771A)", "test": "luminescence", "how to read": "relative to: mutant over wild type", "measurement": "IC50 fold change", "result": "5.5 and 6"}
{"SMILES": "O=C1NC(=O)c2c1c1cc(F)c[n+]3c1c1c2c2cc(O)ccc2[n]1[Ru-4]312([N]=C=S)[S+]3CC[S+]1CC[S+]2CC3 (stereo not drawn)", "target": "NUAK family SNF1-like kinase 1 (NUAK1, Homo sapiens, UniProt O60285)", "test": "enzyme activity", "setting": "100 nM, human enzyme, together with: 10 µM ATP", "how to read": "relative to: untreated", "measurement": "remaining activity", "result": "31%"}
{"SMILES": "CN(C)[C@H]1C[C@@]23CC[C@@]4(O2)C(=CC[C@]2(C)[C@@H](c5ccc6ccncc6c5)CC[C@H]24)C=C3[C@@H](O)[C@@H]1O", "target": "Serine/threonine-protein kinase B-raf (BRAF, Homo sapiens, UniProt P15056)", "test": "ATP probe labelling, inhibitor, KiNativ profiling", "setting": "0.1 µM", "measurement": "inhibition", "result": "2.6%"}
{"SMILES": "CC(C)[C@H]1NC(=O)C[C@H]2/C=C/CCSSC[C@@H](NC1=O)C(=O)N[C@H](Cc1cccc3ccccc13)C(=O)NCC(=O)O2", "target": "Protein kinase C theta type (PRKCQ, Homo sapiens, UniProt Q04759)", "test": "enzyme activity, inhibitor", "setting": "10 µM", "measurement": "inhibition", "result": "-2.2%"}
{"SMILES": "[CH3][Ti+2][O]C(=O)c1ccc([S][Au][PH](c2ccccc2)(c2ccccc2)c2ccccc2)cc1.c1cc[cH-]c1.c1cc[cH-]c1", "target": "Protein kinase C delta type (PRKCD, Homo sapiens, UniProt Q05655)", "test": "kinase activity", "setting": "1 µM, together with: ATP 10 µM", "measurement": "remaining activity", "result": "100%"}
{"SMILES": "CC(C)C[C@H](NC(=O)[C@H]1O[C@@H]1C(=O)O)C(=O)NCCCCN=C(N)N", "target": "Cathepsin B (CTSB, Homo sapiens, UniProt P07858)", "measurement": "Hill slope", "result": -1.35}
{"SMILES": "CCOC(=O)[C@@H]1Cc2c(cc([N+](=O)[O-])cc2[N+](=O)[O-])[C@H](O)[C@]12C(=O)Nc1ccc(Br)cc12", "target": "MAP kinase-interacting serine/threonine-protein kinase 1 (MKNK1, Homo sapiens, UniProt Q9BUB5)", "test": "binding, competition with immobilised ligand", "setting": "0.1 µM", "measurement": "remaining binding", "result": "94%"}
{"SMILES": "CCC1c2ccsc2CCN1C(=O)Cn1cc(CC2NC(=O)NC2=O)nn1 (stereo not drawn)", "target": "Genome polyprotein, 3C protease (rhinovirus B14, UniProt P03303)", "test": "protease activity, SAMDI-MS", "measurement": "Hill slope", "result": 7.06}
{"SMILES": "O=C(N[C@@H]1c2ccccc2C[C@H]1N1CCCC1)c1ccc(-c2ccnc3[nH]ccc23)nc1", "target": "Serine/threonine-protein kinase PAK 5 (PAK5, Homo sapiens, UniProt Q9P286)", "test": "binding, competition with immobilised ligand", "setting": "3 µM", "measurement": "remaining binding", "result": "1.6%"}
{"SMILES": "CS(C)(=O)=Nc1ccc(-c2ccc(-c3nc4cc(O[C@@H]5CO[C@H]6[C@@H]5OC[C@H]6O)[nH]c4cc3F)cc2)cc1", "target": "Proto-oncogene tyrosine-protein kinase Src (SRC, Homo sapiens, UniProt P12931, T341M)", "test": "enzyme activity, inhibitor", "setting": "10 µM", "measurement": "inhibition", "result": "-9%"}
{"SMILES": "COCC1CCCCN1C(=O)n1cc(C(O)(c2ccccc2)c2ccccc2)nn1 (stereo not drawn)", "target": "Monoacylglycerol lipase ABHD6 (Abhd6, Mus musculus, UniProt Q8R2Y0)", "test": "probe labelling, inhibitor, competitive ABPP-SILAC", "system": "mouse T cells", "setting": "concentration not given, 4 h, protein level", "how to read": "relative to: treated over DMSO cells, lower = stronger inhibition", "measurement": "SILAC activity ratio", "result": 0.95}
{"SMILES": "CC(=O)c1cccc(/N=N/c2cccc([B-](F)(F)F)c2)c1.[K+]", "target": "Chymotrypsinogen A (Bos taurus, UniProt P00766)", "test": "enzyme activity, inhibitor", "setting": "together with: Suc-AAPF-AMC", "how to read": "relative to: Ki cis over Ki trans", "measurement": "switching factor", "result": "1.2 ± 0.1"}
{"SMILES": "O=C(Cc1ccc(F)c(Cl)c1)N1CCN[C@@H]2COC[C@H](N3CCCC3)[C@H]21 (relative stereo)", "target": "OPRK1", "test": "agonist", "setting": "0.3333 h", "measurement": "Emax", "result": "93 ± 23.8%"}
{"SMILES": "C[C@@H](Cc1ccsc1)NC(=O)NC[C@H](Cc1ccc(O)cc1)N(C)C", "target": "Mu-type opioid receptor, with GoA (OPRM1, Homo sapiens, UniProt P35372)", "test": "receptor activation, agonist", "measurement": "Emax", "result": "80 ± 7%"}
{"note": "Repeated from above:"}
{"SMILES": "[CH3][Ti+2][O]C(=O)c1ccc([S][Au][PH](c2ccccc2)(c2ccccc2)c2ccccc2)cc1.c1cc[cH-]c1.c1cc[cH-]c1", "target": "Protein kinase C delta type (PRKCD, Homo sapiens, UniProt Q05655)", "test": "kinase activity", "setting": "1 µM, together with: ATP 10 µM", "measurement": "remaining activity", "result": "100%"}
{"SMILES": "CC[C@H](C)[C@H](NC(=O)[C@H](CC(C)C)NC(=O)[C@H](CC(C)C)NC(=O)[C@H](CC(=O)O)NC(=O)[C@@H](NC(=O)[C@H](CCC(=O)O)NC(=O)[C@H](CCCCN)NC(=O)[C@H](Cc1ccc(O)cc1)NC(=O)[C@H](CCCCN)NC(=O)[C@H](Cc1c[nH]cn1)NC(=O)CNC(=O)CN)[C@@H](C)O)C(=O)N[C@@H](CC(C)C)C(=O)N[C@@H](Cc1ccccc1)C(=O)N[C@@H](CCCCN)C(=O)N[C@@H](CC(=O)O)C(=O)N[C@@H](CC(=O)O)C(=O)N[C@@H](Cc1ccc(O)cc1)C(=O)N[C@@H](Cc1ccccc1)C(=O)N[C@@H](C)C(=O)N[C@@H](CCCCN)C(=O)N[C@@H](CCCCN)C(=O)N[C@@H](CC(N)=O)C(=O)N[C@@H](CCC(=O)O)C(=O)N[C@@H](CCC(=O)O)C(=O)N[C@@H](CCCNC(=N)N)C(=O)N[C@@H](CCCCN)C(N)=O", "target": "HCV IRES RNA", "test": "RNA cleavage", "system": "hepatitis C virus", "measurement": "kcat/Km", "result": "3500 M⁻¹ s⁻¹"}
{"SMILES": "O=C(CCl)c1ccc(F)cc1", "target": "Fosb/Jund, ΔFosB bZIP domain (Mus musculus, UniProt P13346+P15066)", "test": "intact mass LC-MS, item: JUND adduct, HCl lost", "setting": "concentration not given", "how to read": "relative to: total JUND species", "measurement": "relative abundance", "result": "32.6%"}
